Experimental data gathered from unrelated publications.
Protocols differ between the studies behind these lines.
UCHL1: Ubiquitin carboxyl-terminal hydrolase isozyme L1 (UCHL1, Homo sapiens, UniProt P09936)
Chain of UniProt P09936 (whole entry, looked up): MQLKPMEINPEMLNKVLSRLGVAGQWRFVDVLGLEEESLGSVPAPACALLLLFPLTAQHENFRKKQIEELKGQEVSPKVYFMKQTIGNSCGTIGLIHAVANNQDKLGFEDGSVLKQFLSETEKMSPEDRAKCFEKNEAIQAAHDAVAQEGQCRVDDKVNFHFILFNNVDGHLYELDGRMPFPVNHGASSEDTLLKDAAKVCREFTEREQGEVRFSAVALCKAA

Structure (SMILES) | tested on | test | test system | setting | scale | endpoint | value
COc1cc(C#CC(=O)C(C)C)ccc1O | Pseudomonas aeruginosa | static biofilm | PA14 | 10 µM, 24 h | reference: DMSO | biofilm formation | 76%
CC[C@H]1CN2CCc3cc(OC)c(OC)cc3[C@@H]2C[C@@H]1C[C@H]1NCCc2cc(OC)c(OC)cc21 | Toxoplasma gondii | parasite growth, luciferase reporter | HFF, tachyzoite | 72 h |  | EC90 | 0.172 µM
Cc1ccc(C(=O)c2c(NC(=O)c3ccncc3)sc3c2CCCC3)cc1 | Trypanosoma cruzi | reporter translation, Renilla luciferase mRNA translation | cell-free extract | 40 µM | reference: DMSO | inhibition | -8.9%
Cn1cc(-c2ccc(-c3cncc(Cl)c3N3CCC4(CCNC4=O)CC3)cc2)cn1 | COLO 205 | microarray, measured: ITPR1 |  | concentration not given, 2 h, gene set IP3R1 | reference: untreated cells | fold change in expression | 2.43
C[C@H]1C[C@H]2CSC(N)=N[C@@]2(c2nc(NC(=O)c3ccc(OC(F)F)cn3)cs2)CO1 |  | measured: Aβx-40 | healthy adults, plasma | 275 mg once daily, day 14 | reference: placebo | percent change from baseline | -71.8%
O=C(C#Cc1ccc(F)c(F)c1)c1cccc(Cl)c1 | Pseudomonas aeruginosa | static biofilm | PA14 | 10 µM, 24 h, static | reference: DMSO | biofilm formation | 56%
COc1cnc2cccc(N3CCc4c(cc(Cn5ccnc5C)cc4-c4cn(C)nc4C(F)(F)F)C3=O)c2c1 | SK-HEP1 | cell growth, inhibitor |  | 120 h |  | EC50 | > 30 µM
CC(C)NCC(O)c1ccc(O)c(O)c1 (stereo not shown) |  |  | ventricular cardiomyocytes, C57BL/6 mouse | dose not given, 0.392 s |  | sarcomere length | 1.72 µm
NS(=O)(=O)c1ccc(CNc2nc(Nc3cccc(CN4CCOCC4)c3)ncc2C2CC2)cc1 | 403 human wild-type kinases | scanMAX |  |  | PoC below 10 | number of kinases bound | 3
COc1cc(CN(C)CC2CCCN(CCc3ccccc3F)C2)cc(Cl)c1OC (stereo not shown) | Trypanosoma cruzi | reporter translation, Renilla luciferase mRNA translation | cell-free extract | 40 µM | reference: DMSO | inhibition | 5%
CCn1cc(-c2cc(Cn3ccoc3=N)cc3c2CCN([C@@H](C)c2cc(OC)ccn2)C3=O)c(C(F)(F)F)n1 | NCI-H1792 | cell growth, inhibitor |  | 120 h |  | EC50 | 0.00871 µM
COc1cc(C#CC(=O)c2ccc(C(F)(F)F)cc2)ccc1O | Pseudomonas aeruginosa | static biofilm | PA14 | 10 µM, 24 h, static | reference: DMSO | biofilm formation | 66%
N#Cc1ccc2c(-c3ccncc3)c(-c3ccc(F)cc3)nn2c1 |  | kinase binding, competitor, MIB/MS competition, measured: YAK1 | Candida albicans cell lysate | 10 µM | reference: DMSO | log2 fold change | -0.0986
CCCC(=O)C#Cc1ccc(O)c(OC)c1 | Pseudomonas aeruginosa | static biofilm | PA14 | 10 µM, 24 h, static | reference: DMSO | biofilm formation | 65%
O=C(O)CNC(=O)Cc1ccccc1 |  |  | ventricular cardiomyocytes, C57BL/6 mouse | dose not given, 0.54 s |  | sarcomere length | 1.62 µm
[H]/N=C(/NCCCCC)N/N=C/c1c[nH]c2ccc(OC)cc12 | Toxoplasma gondii | parasite growth, luciferase reporter | HFF, tachyzoite | 72 h |  | EC90 | 5.85 µM
OC(CCN1CCCCC1)(c1ccccc1)C1CC2C=CC1C2 (stereo not shown) |  | resting-state EEG | healthy elderly humans | oral, 2 mg, eyes closed, LS mean |  | EEG Alpha2-power Fz-Cz | 2.2 µV²

Structure (SMILES) | tested on | test | test system | setting | scale | endpoint | value
CC(=O)OC[C@H]1O[C@@H]([S-])[C@H](OC(C)=O)[C@@H](OC(C)=O)[C@@H]1OC(C)=O.CCP(CC)CC.[Au+] | Toxoplasma gondii | parasite growth | HFF, bradyzoite, alkaline-induced |  |  | EC90 | 1.69 µM
O=C(/C=C/C=C/C=C/C1CCCCC1)NC1=C[C@@](O)(/C=C/C=C/C=C/C(=O)NC2=C(O)CCC2=O)[C@@H]2O[C@@H]2C1=O | JIMT-1 | cell growth, CellTiter-Glo |  | 78 h |  | GI50 | 14.6 µM
Nc1cccc2c1C(=O)N(C1CCC(=O)NC1=O)C2=O (stereo not shown) | bone marrow CD138+ myeloma cells | XTT |  | 2 µM, mean of three patients |  | viability | 8%
CC(=O)[C@]1(O)Cc2c(O)c3c(c(O)c2[C@@H](O[C@H]2C[C@H](N)[C@H](O)[C@H](C)O2)C1)C(=O)c1ccccc1C3=O | Toxoplasma gondii | parasite growth, luciferase reporter | HFF host cells, tachyzoites | 72 h |  | EC50 | 0.19 µM
COc1ccc(C(=O)C#Cc2ccc(O)c(OC)c2)cc1 | Pseudomonas aeruginosa | static biofilm | PA14 | 10 µM, 24 h, static | reference: DMSO | biofilm formation | 73%
Oc1ccccc1-c1n[nH]cc1-c1ccnc2ccccc12 | VPS15 (Candida albicans) | kinase binding, MIB/MS competition | Candida albicans lysate | 1 µM | reference: DMSO | log2 fold change | 0.13
CC(C)(C)OC(=O)C(Br)(C(=O)OC(C)(C)C)c1ccc(Cl)nn1 | UCHL1 | covalent, intact protein LC-MS |  | 12.5 µM |  | labelling | 14%
O=c1[nH]cc(F)c(=O)[nH]1 | Toxoplasma gondii | parasite growth, luciferase reporter | HFF, tachyzoite | 72 h |  | EC90 | 1.18 µM
C[C@H](Oc1ccc(Br)cc1-c1ccon1)C(=O)O |  | MVRC latency | human, tibialis anterior muscle | 800 mg, SAD |  | difference from placebo | 0.165 ms
COc1cc(C=C(C#N)C(=O)Nc2ccc(F)cc2)cc(Cl)c1O | UCHL1 | covalent, intact protein LC-MS |  | 12.5 µM |  | labelling | 12.4%
O=C1C(O)=C([C@H]2CC[C@H](c3ccc(Cl)cc3)CC2)C(=O)c2ccccc21 | Toxoplasma gondii | tachyzoite growth, luciferase | ME49-Fluc, type II |  |  | EC50 | 0.1 µM
O=C(C#Cc1ccc(F)c(F)c1)c1ccccc1Cl | Pseudomonas aeruginosa | RT-qPCR, measured: rhlA | biofilm cells | 10 µM, 24 h | reference: untreated | mRNA level | 16%
c1coc(-c2n[nH]cc2-c2ccnc3ccccc23)c1 | CMK1 (Candida albicans) | kinase binding, MIB/MS competition | Candida albicans lysate | 10 µM | reference: DMSO | log2 fold change | -0.14
O=C(Nc1ccncc1)c1cc([N+](=O)[O-])ccc1Cl | Toxoplasma gondii | parasite growth | HFF, bradyzoite, glutamine-induced |  |  | EC50 | 0.634 µM
COc1cccc(C(=O)C#Cc2ccc(F)c(F)c2)c1 | Pseudomonas aeruginosa | RT-qPCR, measured: lasB | biofilm cells | 10 µM, 24 h | reference: untreated | mRNA level | 47%
O=C(c1ccc(OCCN2CCCCC2)cc1)c1c(-c2ccc(O)cc2)sc2cc(O)ccc12 | Toxoplasma gondii | parasite growth | HFF, bradyzoite, alkaline-induced |  |  | EC50 | 7.38 µM
COc1ccc(C(=O)C#Cc2ccc(F)c(F)c2)cc1 | Pseudomonas aeruginosa | static biofilm | PA14 | 10 µM, 24 h | reference: DMSO | biofilm formation | 88%

Some of these lines once more:
Structure (SMILES) | tested on | test | test system | setting | scale | endpoint | value
COc1cc(C#CC(=O)C(C)C)ccc1O | Pseudomonas aeruginosa | static biofilm | PA14 | 10 µM, 24 h | reference: DMSO | biofilm formation | 76%
O=C(/C=C/C=C/C=C/C1CCCCC1)NC1=C[C@@](O)(/C=C/C=C/C=C/C(=O)NC2=C(O)CCC2=O)[C@@H]2O[C@@H]2C1=O | JIMT-1 | cell growth, CellTiter-Glo |  | 78 h |  | GI50 | 14.6 µM
